# Experimental data collected from several papers.
# Several values in a cell are separate wells, animals, samples, runs or records. ± marks the error that the study gave.
Structure (SMILES),target or system,test,test system,setting,how to read,quantity,value
CCCC(C(=O)c1ccc(O)c(OC)c1)N1CCCC1 (stereo not drawn),,,rat,"subcutaneous, 4 mg/kg MDPV, 240 min",,brain-to-plasma ratio,0.2 ± 0.1
C#Cc1ccc2c(c1)C(c1ccccn1)=NCc1c(-c3cnco3)ncn1-2.Cl,,shake flask,50 mM phosphate buffer,"24 h, pH 4, 25 °C",,solubility,3460 µg/mL
Cc1ncc(OC[C@@]2(c3cccc(F)c3)C[C@H]2C(=O)Nc2ccc(F)cn2)c(C)n1,,population PK base model,"human, plasma","oral, capsule",,zero-order absorption duration,0.598 h
O=C1c2c(O)c(=O)ccn2N([C@@H]2c3ccccc3SCc3c2ccc(F)c3F)[C@@H]2COCCN12,,,BALB/c mouse,"subcutaneous, 4 mg/kg q24h",,trough concentration,4.38 ng/mL
CN/C(=N\[N+](=O)[O-])NCc1cnc(Cl)s1,,,soil,"28 days, nominal 0.12",,recovery,33%
OCc1ncc2n1-c1ccc(Cl)cc1C(c1ccccc1F)=NC2,,,"healthy volunteers, plasma","dose not given, together with: momelotinib",relative to: with momelotinib over alone,AUCinf geometric mean ratio,83.8%
C/C=C1/CN2CC[C@]34C(=C(C(=O)OC)[C@H]1C[C@H]23)Nc1ccc(I)cc14,,,CD-1 mouse,"subcutaneous, 5 mg/kg, 10 min",relative to: baseline,rotarod latency,~65%
CCN(CC)C(=O)[C@@H]1C=C2c3cccc4[nH]cc(c34)C[C@H]2N(C)C1,,refers to: hypersensitivity to odours,healthy volunteers,"dose not given, 0 to 12 h","relative to: placebo, direction not given",List of Complaints score,3
CN1COCN(Cc2cnc(Cl)s2)/C1=N\[N+](=O)[O-],,,soil,"0 days, nominal 10",,recovery,73%
CCCCN(CCCC)CCCNC(=O)c1ccc2nc(N3CCCCC3)sc2c1,Vero-E6,CellTiter-Glo ATP,,"concentration not given, 72 h, second round 5-point","relative to: DMSO 0%, hyamine -100%, more negative, more toxic",cytotoxicity efficacy,0%
C#Cc1ccc2c(c1)C(c1ccccn1)=NCc1c(-c3cnco3)ncn1-2,,,Sprague Dawley rat,"oral, 2 mg/kg, cassette dosing",relative to: brain AUC over plasma AUC,Kp,1.08 and ~1
OCc1ncc2n1-c1ccc(Cl)cc1C(c1ccccc1F)=NC2,,refers to: 1'-hydroxymidazolam,"wild-type mice, plasma","iv, 500 mg/kg, 14 days, together with: midazolam 0.3 mg/kg",,Tmax,8.3 ± 2.9 min
CC(=O)O[C@H]1C=C[C@H]2[C@H]3Cc4ccc(O)c5c4[C@@]2(CCN3C)[C@H]1O5,,LC-MS/MS,"male Sprague-Dawley rat, whole blood","intraperitoneal, 10 mg/kg of heroin",,AUC(0-inf),1150 ± 169 ng·h/mL
CCC(CC)COC(=O)[C@H](C)N[P@](=O)(OC[C@H]1O[C@@](C#N)(c2ccc3c(N)ncnn23)[C@H](O)[C@@H]1O)Oc1ccccc1,,,healthy human volunteers,dose not given,,tolerability,not toxic
OCc1ncc2n1-c1ccc(Cl)cc1C(c1ccccc1F)=NC2,,,"human, plasma","oral, 7.5 mg of midazolam, day 1, arithmetic mean, no amenamevir",,AUC(0-t),45.8 ng·h/mL
CCCC(C(=O)c1ccc2c(c1)OCO2)N1CCCC1.Cl (racemic),,,rat,"subcutaneous, 2 mg/kg, 40 min",,brain-to-plasma ratio,12.1 ± 1
Cc1ncc2n1-c1ccc(Cl)cc1C(c1ccccc1F)=NC2,,,healthy humans,"oral, dose not given",,adverse event Somnolence,21.7%
CCCCCCCCCCC(=O)O[C@H]1CC[C@H]2[C@@H]3CCC4=CC(=O)CC[C@]4(C)[C@H]3CC[C@]12C,,,human male serum,"500 ng/mL, NaF 200 mg/mL, baseline testosterone 544 ng/dL",,testosterone level,551 ng/dL
Cc1ncc2n1-c1ccc(Cl)cc1C(c1ccccc1F)=NC2,,,"wild-type mice, plasma","intravenous, 0.3 mg/kg, together with: 3-day PB, BC 500 mg/kg and PCN 10 mg/kg",,mean residence time,0.605 ± 0.175 h
CCCC(C(=O)c1ccc(O)c(O)c1)N1CCCC1 (stereo not drawn),,,rat,"subcutaneous, 4 mg/kg MDPV, 40 min",,brain-to-plasma ratio,0.1 ± 0.1
CCOC(=O)Nc1ccc(NCc2ccc(F)cc2)cc1N,,rotarod test,"mouse, CCI neuropathic pain model",10 mg/kg,,time to fall,1.61 ± 0.13 min
O=C(O)CCCO,,,"Sprague-Dawley rat, male","intravenous, 600 mg/kg daily, day 5, chronic",,renal clearance,1.64 mL/min/kg
O=C(Nc1cccc(Cl)c1)C1CCCN(Cc2cccc(-c3ccc(F)cc3F)c2)C1 (stereo not drawn),Vero-E6,CellTiter-Glo ATP,,"concentration not given, 72 h, first round 5-point","relative to: DMSO 0%, hyamine -100%, more negative, more toxic",cytotoxicity efficacy,0%
COC(=O)[C@H]1[C@@H](OC(=O)c2ccccc2)C[C@@H]2CC[C@H]1N2C,,LC-MS/MS,"Sprague-Dawley rat, male, whole blood","intraperitoneal, 20 mg/kg",,AUC(0-inf),761 ± 45.2 ng·h/mL
COc1ccc2c3c1O[C@H]1[C@@H](O)CC[C@@]4(O)[C@@H](C2)N(C)CC[C@]314,,pH-potentiometric titration,,,relative to: O-methyl derivative,"Δlog K, saturation effect",0.4 log units
CC(=O)c1c(C)c2cnc(Nc3ccc(C4CCN(CCS(C)(=O)=O)CC4)cn3)nc2n(C2CCCC2)c1=O,,,"human, plasma","oral, 75 mg twice daily, day 21, multiple doses, together with: letrozole",,AUC(0-inf),1220 ng·h/mL
COc1cccc(C2(O)CCCCC2CN(C)C)c1 (stereo not drawn),,joint PK model,"human, whole blood","oral, two-compartment metabolite model",,Kt,0.0346 L/h
C[C@]12CC[C@H]3[C@@H](CC=C4CC(O)CC[C@@]43CO)[C@@H]1CCC2O (stereo partly drawn),,,"rat, GAN diet-induced MASH",dose not given,relative to: vehicle,food intake,no effect
CN(C)C[C@H]1CCCC[C@]1(O)c1cccc(O)c1,,joint PK model,human,"dose not given, two-compartment metabolite model",,metabolite peripheral volume,0.561 L
O=C(C1CCCCC1)N1CCN(S(=O)(=O)c2cccc3cnccc23)CC1,,,human,"5 µM, together with: ketoconazole 3 µM",,CYP3A contribution to clearance,0%

# A few entries again:
Structure (SMILES),target or system,test,test system,setting,how to read,quantity,value
O=C(C1CCCCC1)N1CCN(S(=O)(=O)c2cccc3cnccc23)CC1,,,human,"5 µM, together with: ketoconazole 3 µM",,CYP3A contribution to clearance,0%
C/C=C1/CN2CC[C@]34C(=C(C(=O)OC)[C@H]1C[C@H]23)Nc1ccc(I)cc14,,,CD-1 mouse,"subcutaneous, 5 mg/kg, 10 min",relative to: baseline,rotarod latency,~65%
OCc1ncc2n1-c1ccc(Cl)cc1C(c1ccccc1F)=NC2,,refers to: 1'-hydroxymidazolam,"wild-type mice, plasma","iv, 500 mg/kg, 14 days, together with: midazolam 0.3 mg/kg",,Tmax,8.3 ± 2.9 min
CN1COCN(Cc2cnc(Cl)s2)/C1=N\[N+](=O)[O-],,,soil,"0 days, nominal 10",,recovery,73%
